Assay results collected from several papers.
Each line is one published result; not all experiments were run side by side. ± gives the spread as reported.

The EC50 of `COc1cnc2cccc(N3CCc4c(cc(Cn5ccnc5C)cc4-c4cn(C)nc4C(F)(F)F)C3=O)c2c1` is reported as 7.16 µM (CAL-120; cell growth, inhibitor; 120 h).
With `C#Cc1cccc(Nc2ncnc3cc(OCCOC)c(OCCOC)cc23)c1` the beat rate was 102% (iCell Cardiomyocytes (hiPSC-derived); xCELLigence Cardio impedance; concentration not given, 2 h; relative to: control).
For `Cc1cc(Nc2ncc(Cl)c(Nc3ccccc3S(=O)(=O)C(C)C)n2)c(OC(C)C)cc1C1CCNCC1`, “log2 fold change” read -1.87 (CLB-GE; phosphoproteomics LC-MS/MS, item: FAM111B phosphorylation; 200 nM, 60 min; relative to: untreated).
For `NCc1[nH]cc(CCC(=O)O)c1CC(=O)O`, “z-scored log2 fold change” read 0.335 (binding, equilibrium dialysis LC-MS; 5 µM, thermostabilized A2AR-BRIL construct; relative to: no-protein control, direction not given).
With `CN1CC[C@H](c2c(O)cc(O)c3c(=O)cc(-c4ccccc4Cl)oc23)[C@H](O)C1` the beat rate was 77.1% (iCell Cardiomyocytes (hiPSC-derived); xCELLigence Cardio impedance; concentration not given, 2 h; relative to: control).
With `CCn1cc(-c2cc(Cn3ccoc3=N)cc3c2CCN([C@@H](C)c2cc(OC)ccn2)C3=O)c(C(F)(F)F)n1` the EC50 was 0.604 µM (LUDLU-1; cell growth, inhibitor; 120 h).
With `COc1cc2c(cc1OC)[C@@H](Cc1ccc(O)c(Oc3cc4c(cc3OC)CCN(C)[C@@H]4Cc3ccc(O)cc3)c1)N(C)CC2` the inhibition was 18.7 ± 0.9% (3T3-L1; adipocyte lipid accumulation, Nile Red staining; 5 µM).
`CCCCCCCC(=O)SCCNC(=O)CCNC(=O)[C@H](O)C(C)(C)COP(=O)(O)OP(=O)(O)OC[C@H]1O[C@@H](n2cnc3c(N)ncnc32)[C@H](O)[C@@H]1OP(=O)(O)O` — result for “z-scored log2 fold change”: 1.11 (binding, equilibrium dialysis LC-MS; 5 µM, thermostabilized A2AR-BRIL construct; relative to: no-protein control, direction not given).
For `CC1(C)CCC(CN2CCN(c3ccc(C(=O)NS(=O)(=O)c4ccc(NCC5CCOCC5)c([N+](=O)[O-])c4)c(Oc4cnc5[nH]ccc5c4)c3)CC2)=C(c2ccc(Cl)cc2)C1`, “early apoptotic cells” read 3.3% (THP-1; annexin V/PI flow cytometry, item: annexin V+/PI-; 1.6 µM, 24 h).
For `Cn1cc(-c2ccc(-c3cncc(Cl)c3N3CCC4(CCNC4=O)CC3)cc2)cn1`, “log2 fold change” read 2.67 (COLO 205; gene expression, microarray, item: TCP11L2 mRNA; concentration not given, 2 h; relative to: untreated cells).
`CCn1cc(-c2cc(Cn3ccnc3)cc3c2CCN([C@H](c2cc(OC)ccn2)C2CC2)C3=O)c(C(F)(F)F)n1` has an EC50 of 26.6 µM (HuH-1; cell growth, inhibitor; 120 h).
`O=C(c1ccc(/C=C/c2n[nH]c3ccccc23)cc1)N1CCNCC1` has a beat amplitude of 108% (iCell Cardiomyocytes (hiPSC-derived); xCELLigence Cardio impedance; concentration not given, 2 h; relative to: control).
`O=C(/C=C/C=C/C=C/C1CCCCC1)NC1=C[C@@](O)(/C=C/C=C/C=C/C(=O)NC2=C(O)CCC2=O)[C@@H]2O[C@@H]2C1=O` has a GI50 of 17.5 µM (SW-403; cell growth, CellTiter-Glo; 78 h).
For `Cc1ccc(NC(=O)c2ccc(CN3CCN(C)CC3)cc2)cc1Nc1nccc(-c2cccnc2)n1`, the beat amplitude was 100% (iCell Cardiomyocytes (hiPSC-derived); xCELLigence Cardio impedance; concentration not given, 2 h; relative to: control).
The GR50 of `Cc1nc(NC(=O)N2CCC[C@H]2C(N)=O)sc1-c1ccnc(C(C)(C)C(F)(F)F)c1` is reported as over 5 µM (SK-OV-3; resazurin growth rate inhibition; 72 h).
`Clc1nc(NCc2ccco2)c2[nH]cnc2n1` has a ΔPSI of -0.209 (iPSC-derived cardiomyocytes; RNA-seq, item: chr1 exon ending 94961433; unit not given; relative to: DMSO minus compound).
`C=CC(=O)Nc1cc2c(Nc3ccc(F)c(Cl)c3)ncnc2cc1OCCCN1CCOCC1` has a beat rate of 90.7% (iCell Cardiomyocytes (hiPSC-derived); xCELLigence Cardio impedance; concentration not given, 2 h; relative to: control).

Repeated from above:
With `CCn1cc(-c2cc(Cn3ccoc3=N)cc3c2CCN([C@@H](C)c2cc(OC)ccn2)C3=O)c(C(F)(F)F)n1` the EC50 was 0.604 µM (LUDLU-1; cell growth, inhibitor; 120 h).
With `COc1cc2c(cc1OC)[C@@H](Cc1ccc(O)c(Oc3cc4c(cc3OC)CCN(C)[C@@H]4Cc3ccc(O)cc3)c1)N(C)CC2` the inhibition was 18.7 ± 0.9% (3T3-L1; adipocyte lipid accumulation, Nile Red staining; 5 µM).
`CCCCCCCC(=O)SCCNC(=O)CCNC(=O)[C@H](O)C(C)(C)COP(=O)(O)OP(=O)(O)OC[C@H]1O[C@@H](n2cnc3c(N)ncnc32)[C@H](O)[C@@H]1OP(=O)(O)O` — result for “z-scored log2 fold change”: 1.11 (binding, equilibrium dialysis LC-MS; 5 µM, thermostabilized A2AR-BRIL construct; relative to: no-protein control, direction not given).
